# Experimental data collected from several papers.
# Lines come from different studies, so protocols differ. ± gives the spread as reported.
# Cell line: HepG2
Structure (SMILES),test,conditions,IC50
"Oc1cccc2c1[nH]c1c(C3=CC4(O)CCC=CCCCCN5CCC3C3(CC6C=CCCCCN6C43)C5)nccc12 (single isomer, unassigned; (+))","cell growth or viability, neutral red",48 h,0.51 µg/mL
O=C(O)c1ccc(-c2ccc(O)cc2)c2c1C=C(c1ccc(O)cc1)OC2(c1ccc(O)cc1)c1ccc(O)cc1,"cell growth or viability, MTT",48 h,10.3 µM
CC(C)c1ccc(N(C)c2ccc3c(c2)OCC[C@H]3CNc2cnccc2C(=O)O)cc1,"cell growth or viability, ATP luminescence",7 days,0.0521 µM
CCOC(=O)/C=C1\S/C(=N\N=C\c2cccc3cc4ccccc4nc23)N(c2cccc(OC)c2)C1=O,"cell growth or viability, MTT",48 h,> 50 µM
c1ccc2nc3c4cccnc4c4ncccc4c3nc2c1,"cell growth or viability, MTT",48 h,> 50 µM
NC1=C(Cl)C(=O)c2ccccc2C1=O,"cell growth or viability, MTT",,12.4 µM
CCOC(=O)/C=C1\S/C(=N\N=C\c2cccc3cc4ccccc4nc23)N(C)C1=O,"cell growth or viability, MTT",48 h,> 50 µM
Cc1ccc2c(Br)cc(Br)c([O-])c2n1.Cc1ccc2c(Br)cc(Br)c([O-])c2n1.[Co+2].c1cnc2c(c1)ccc1cccnc12,"cell growth or viability, MTT",48 h,11 µM
CCCN1C(=O)CS/C1=N\N=C\c1cccc2cc3ccccc3nc12,"cell growth or viability, MTT",48 h,> 50 µM
O=C1C(Br)=C(Br)C(=O)c2ccccc21,"cell growth or viability, MTT",,18.4 µM
CCCCN(C)CC(O)Cn1c2ccc(Br)cc2c2cc(Br)ccc21 (stereo not shown),cell growth or viability,,2.61 µM
CCOC(=O)/C=C1\S/C(=N\N=C\c2cccc3cc4ccccc4nc23)N(c2ccc(F)cc2)C1=O,"cell growth or viability, MTT",48 h,> 50 µM
CCN(CC)CCOC(=O)c1ccc(NC2OC(CO)C(O)C(O)C2O)cc1 (stereo not shown),cell growth or viability,,> 10 µM
COc1ccnc(-c2cc(OC)ccn2)c1.[Co+2].[O-]c1c(I)cc(I)c2cccnc12.[O-]c1c(I)cc(I)c2cccnc12,"cell growth or viability, MTT",48 h,33.7 µM
CCCCCCCC/C=C/CCCCCCCC(=O)[O][Pt-2]1([OH])([Cl])([NH+]=C(CC)N(C)CCNc2c3ccccc3[nH+]c3ccccc23)[NH]CCC[NH]1.O=[N+]([O-])O.O=[N+]([O-])O,"cell growth or viability, MTS",72 h,0.16 µM
Clc1ccnc2c1ccc1c(Cl)ccnc12.[Co+2].[O-]c1c(Br)cc(Br)c2cccnc12.[O-]c1c(Br)cc(Br)c2cccnc12,"cell growth or viability, MTT",48 h,30.5 µM
Cc1ccc2c(c1C#Cc1ccc(O)cc1)C(c1ccc(O)cc1)(c1ccc(O)cc1)c1cc(O)ccc1-2,"cell growth or viability, MTT",48 h,12.2 µM
[Co+2].[O-]c1c(I)cc(I)c2cccnc12.[O-]c1c(I)cc(I)c2cccnc12.c1cnc2c(c1)ccc1cccnc12,"cell growth or viability, MTT",48 h,40.1 µM
CNC(=O)C1CCCN(C(=O)C2CC3CCC2N3C(=O)[C@@H]2C[C@@H](O)CN2C(=O)NCc2cccc(Cl)c2F)C1 (mixture of isomers),"cell growth or viability, CCK-8",72 h,0.6 µM
CN1CCC(N[C@@H]2CCc3[nH]c4c(C(N)=O)ccc(-c5ccccc5Cl)c4c3C2)CC1,cell growth or viability,,0.00852 µM
Oc1ccc(C#Cc2c(O)ccc3c2C(c2ccc(O)cc2)(c2ccc(O)cc2)c2cc(O)ccc2-3)cc1,"cell growth or viability, MTT",48 h,20.9 µM
COc1ccc2c(c1)/C(=N/NC(N)=S)C(=O)N2CCn1cnc2c(N)ncnc21,"cell growth or viability, SRB",,6.03 µM
CC(C)=CC1OC(C)(C)C2C=C3C(=O)C(Cl)=CC(O)C3C3C(O)C4OC4C(=O)C132 (stereo not shown),"cell growth or viability, MTS",,7.32 µM
c1ccc(-c2ccnc3c2ccc2c(-c4ccccc4)ccnc23)cc1,"cell growth or viability, MTT",48 h,> 50 µM
O=C1C(=NN=c2[nH]ccs2)c2cc(Cl)ccc2N1CCn1ncc2c(=O)[nH]cnc21,"cell growth or viability, SRB",72 h,0.77 µg/mL
Cc1nc(CN(C)c2ncnc3c2cnn3CCO)cs1,"cytotoxicity, MTT",,> 50 µM
CCOC(=O)/C=C1\S/C(=N\N=C\c2cccc3cc4ccccc4nc23)N(c2ccccc2)C1=O,"cell growth or viability, MTT",48 h,> 50 µM
Cc1ccc(C(C)C)cc1.Cc1ccc(C(C)C)cc1.Cc1ccc(C(C)C)cc1.Cc1ccc(C(C)C)cc1.O=S(=O)(O)C(F)(F)F.O=S(=O)(O)C(F)(F)F.O=S(=O)(O)C(F)(F)F.O=S(=O)(O)C(F)(F)F.c1ccc2c3c4ccccc4c(c2c1)-c1cn(nn1)-c1cc[n+](cc1)[Ru-]1[O]c2c4ccccc4c4c5c(c6ccccc6c(c25)=[O+]1)=[O+][Ru-]([O]4)[n+]1ccc(cc1)-n1cc(nn1)-c1c2ccccc2c(c2ccccc12)-c1cn(nn1)-c1cc[n+](cc1)[Ru-]1[O]c2c4ccccc4c4c5c(c6ccccc6c(c25)=[O+]1)=[O+][Ru-]([O]4)[n+]1ccc(cc1)-n1cc-3nn1,"cell growth, MTT","24 h, 20 µM preincubated in medium 48 h at 37 °C",13.4 ± 2.18 µM
COc1ccc(N2C(=O)CS/C2=N\N=C\c2cccc3cc4ccccc4nc23)cc1,"cell growth or viability, MTT",48 h,42.7 µM
O=c1[nH]c(=O)n([C@@H]2O[C@H](CO)[C@@H](O)[C@H]2O)cc1F,cell growth or viability,,2.37 µM
COc1ccc(OC)c2c1CN(c1cn[nH]c(=O)c1Cl)CC2O (stereo not shown),"cytotoxicity, MTT",,> 50 µM
O=C1CS/C(=N\N=C\c2cccc3cc4ccccc4nc23)N1c1ccc([N+](=O)[O-])cc1,"cell growth or viability, MTT",48 h,> 50 µM
Cc1ccc(C(C)C)cc1.Cc1ccc(C(C)C)cc1.Cc1ccc(C(C)C)cc1.Cc1ccc(C(C)C)cc1.O=S(=O)(O)C(F)(F)F.O=S(=O)(O)C(F)(F)F.O=S(=O)(O)C(F)(F)F.O=S(=O)(O)C(F)(F)F.c1ccc2c3c4ccccc4c(c2c1)-c1cn(nn1)-c1cc[n+](cc1)[Ru-]1[O]c2cc4c(cc2=[O+]1)[O][Ru-]([O+]=4)[n+]1ccc(cc1)-n1cc(nn1)-c1c2ccccc2c(c2ccccc12)-c1cn(nn1)-c1cc[n+](cc1)[Ru-]1[O]c2cc4c(cc2=[O+]1)[O][Ru-]([O+]=4)[n+]1ccc(cc1)-n1cc-3nn1,"cell growth or viability, MTT",24 h,> 20 µM
NC[C@H]1O[C@H](O[C@H]2[C@H](O)[C@@H](O[C@H]3O[C@H](CO)[C@@H](O)[C@H](N)[C@H]3O)[C@H](N)C[C@@H]2N)[C@H](N)C[C@@H]1O,cell growth or viability,,> 10 µM
O=Cc1ccc(-c2ccc(O)cc2)c(C(=C2C=CC(=O)C=C2)c2ccc(O)cc2)c1C#Cc1ccc(O)cc1,"cell growth or viability, MTT",48 h,12.5 µM
OC[C@H]1O[C@@](CO)(O[C@H]2O[C@H](CO)[C@@H](O)[C@H](O)[C@H]2O)[C@@H](O)[C@@H]1O,cell growth or viability,,> 10 µM
CNS(=O)(=O)Nc1nccc(Cc2c(C)c3ccc(Oc4ncccc4F)cc3oc2=O)c1F,"cell viability, CellTiter-Glo",7 days,0.00472 µM
CN1C(=O)CS/C1=N\N=C\c1cccc2cc3ccccc3nc12,"cell growth or viability, MTT",48 h,> 50 µM
Cc1ccc2c(Cl)cc(Cl)c([O-])c2n1.Cc1ccc2c(Cl)cc(Cl)c([O-])c2n1.Clc1ccnc2c1ccc1c(Cl)ccnc12.[Co+2],"cell growth or viability, MTT",48 h,5.41 µM
Nc1ncn([C@@H]2O[C@H](CO)[C@@H](O)[C@H]2O)c(=O)n1,cell growth or viability,,> 10 µM
CCC(=[NH+][Pt-2]1([Cl])([O]C(C)=O)([O]C(C)=O)[NH]CCC[NH]1)N(C)CCNc1c2ccccc2[nH+]c2ccccc12.O=[N+]([O-])O.O=[N+]([O-])O,"cell growth or viability, MTS",72 h,0.04 µM
NC(=O)c1ccc(-c2ccccc2Cl)c2c3c([nH]c12)CC[C@H](N)C3,cell growth or viability,,0.0193 µM
CCC(=[NH+][Pt-2]1([Cl])([O]C(=O)CC(C)C)([O]C(=O)CC(C)C)[NH]CCC[NH]1)N(C)CCNc1c2ccccc2[nH+]c2ccccc12.O=[N+]([O-])O.O=[N+]([O-])O,"cell growth or viability, MTS",72 h,0.016 µM
